Experimental data gathered from unrelated publications.
Protocols differ between the studies behind these lines. ± marks the error that the study gave.

Compound = COc1cc(NC(C)=O)c2c(c1O)-c1c(OC)c(OC)cc3c1C(C2)N(C)CC3 (stereo not shown); system = rat brain homogenate; setting = 0.5 µg/mL, time not given, three freeze-thaw cycles; endpoint = remaining compound; result = 102 ± 2.9%
Compound = CCCC[C@H](NC(=O)CNC(=O)CNC(=O)CN1CCN(CC(=O)O)CCN(CC(=O)O)CC1)C(=O)N[C@H]1CC(=O)NCCCC[C@@H](C(N)=O)NC(=O)[C@H](Cc2c[nH]c3ccccc23)NC(=O)[C@H](CCCNC(=N)N)NC(=O)[C@@H](Cc2ccccc2)NC(=O)[C@H](Cc2c[nH]cn2)NC1=O [gallium-67 labelled]; system = C57 mice, female, B16/F1 melanoma, tumour over blood; setting = intravenous, 0.037 MBq, 24 h; endpoint = tumour to tissue uptake ratio; result = 14.5
Compound = CC(C)[C@H](NC(=O)CNC(=O)[C@H](CCC(N)=O)NC(=O)[C@H](C)N)C(=O)O; test = LC-MS/MS; system = human, plasma; setting = intravenous, 30 mg/kg three times daily, day 2, first dose, 10 min infusion, geometric mean; endpoint = AUC(0-last); result = 560 ng·h/mL
Compound = CCC(=O)N[C@@H](C)C(=O)OCC(=O)N[C@@H](C)C(=O)O; system = water; setting = pH 7, 37 °C; endpoint = depolymerization half-life; result = 51.9 h
Compound = Cc1cc(O)c2c(c1)C(=O)c1cc(O)cc(O)c1C2=O.Cc1cc(O)c2c(c1)C(=O)c1cc(O)cc(O)c1C2=O.Cc1nc(C)c(C)nc1C; test = dynamic vapor sorption; setting = 25 °C, 90% relative humidity; endpoint = moisture absorption; result = < 0.06%
Compound = Cn1c(=O)oc2ccc(-c3ccc(CC(C#N)NC(=O)C4CNCCCO4)c(F)c3)cc21 (stereo not shown); system = human; setting = oral, 20 mg once daily, TEAE, multiple ascending dose; endpoint = abdominal pain incidence; result = 0%
Compound = COC(=O)c1ccc(-c2cn(Cc3cc(Cl)ccc3O[11CH3])nn2)cc1; test = PET, Logan plot; system = rhesus monkey, cerebellum; setting = dose not given, 40 min; endpoint = volume of distribution; result = 0.827 mL/cm³
Compound = O=C1CCc2ccc(OCCCCN3CCN(c4cccc(Cl)c4Cl)CC3)cc2N1CO; test = 1H NMR; system = phosphate buffer; setting = pH 7.4, 37 °C; endpoint = conversion half-time; result = ≤ 15 min
Compound = Cc1ncc(COP(=O)([O-])O)c(/C=N\NC(=O)Cn2c(=O)c(Cc3ccccc3)nc3ccccc32)c1O.[Na+]; test = MTT; system = rat primary colonocytes, Albino rat, male; setting = 72 h, concentration at 100% viability; endpoint = safe concentration; result = 0.034 ± 0.001 µM
Compound = COc1cc(-c2nc3ccccc3s2)cc(CN2CCN(CC(=O)OC(C)(C)C)CCN(CC(=O)OC(C)(C)C)CC2)c1O; test = UV-Vis pH titration; setting = 25 °C, ionic strength 0.1 M NaCl; endpoint = pKa2; result = 5.75
Compound = COC(=O)C(c1ccccc1Cl)N1CCC(SCC(=O)c2cccc(OC)c2)C(=CC(=O)O)C1 (mixture of isomers); test = HPLC-MS/MS; system = feline citrate plasma; setting = 100 ng/mL, 24 h, -80 °C, storage stability; endpoint = deviation from nominal; result = 3%
Compound = NCCCC(=O)OCC(=O)c1ccc(O)cc1F.O=C(O)C(F)(F)F; test = photolysis at 300 nm; system = ammonium acetate buffered acetonitrile-water; setting = pH 5.0, 0.01 mol/L buffer; endpoint = quantum yield of rearranged acid; result = 0.23
Compound = O=C(O)CN1CCCN2CCN(CC1)CCN(CC(=O)O)CC2 [copper-64 labelled]; system = Lewis rat, male, juvenile, kidney; setting = intravenous, 100 µCi, 24 h; endpoint = kidney uptake; result = 0.18 ± 0.05 %ID/g
Compound = COc1cc2c(cc1OC)CN(CCCCn1ccc3cc(OCC[18F])ccc31)C2; system = male CD-1 mouse, heart; setting = intravenous, 1 h; endpoint = tracer uptake; result = 2.03 %ID/g
Compound = CCCC1OC2CC3C4CCC5=CC(=O)C=CC5(C)C4C(O)CC3(C)C2(C(=O)COC(=O)CN(CC)CC)O1 (stereo not shown); system = human plasma; setting = 200 µg/mL, 37 °C; endpoint = time to complete hydrolysis; result = ≤ 24 h
Compound = NS(=O)(=O)c1ccc(N2N=C(C(F)(F)F)CC2c2ccc(F)cc2F)cc1 (stereo not shown); system = beagle dog, plasma; setting = oral, 4 mg/kg, single dose; endpoint = half-life; result = 29.3 h
Compound = Cc1ccc(C(C)C)cc1.O=C(N=P(c1ccccc1)(c1ccccc1)c1ccccc1)c1ccccn1.[Cl-].[Cl-].[Ru+2]; system = NOD scid mice, kidney; setting = dose not given, end of efficacy study; endpoint = ruthenium level; result = < 5 µg/g
Compound = NCCCC(=O)OCC(=O)c1cc(F)c(O)c(F)c1.O=C(O)C(F)(F)F; test = photolysis, measured: disappearance of compound; system = aqueous HEPES buffer with LiClO4; setting = pH 8.2; endpoint = quantum yield; result = 0.02
Compound = NC[C@@H](C(=O)Nc1ccc(-c2cn[nH]c2)cc1)c1ccccc1; test = OECD 405 eye irritation; system = New Zealand White rabbit, eye; setting = topical, 0.1%, 24 h (day 2), scale 0 to 3; scale = direction not given; endpoint = conjunctival redness score; result = 0
Compound = CN[C@@H](CCOc1cccc2ccccc12)c1ccccc1; system = healthy male humans, plasma; setting = oral, 60 mg of dapoxetine, with: udenafil 200 mg; endpoint = terminal half-life; result = 15 ± 4.55 h
Compound = Cc1[nH]c(/C=C2\C(=O)Nc3ccc(F)cc32)c(C)c1NC(=O)CCN1CCN(C)CC1; system = dog plasma; setting = 80 ng/mL, 24 h at room temperature after processing, 25 °C; endpoint = accuracy deviation; result = -6.52%
Compound = NCCCC(=O)OCC(=O)c1ccc(O)c(C(F)(F)F)c1.O=C(O)C(F)(F)F; test = photolysis, measured: rearranged acid appearance; system = unbuffered water; endpoint = quantum yield; result = 0.14
Compound = CCc1cc(Nc2nc(-c3ccc(-n4cnc(C)c4)c(F)c3)cs2)c(C)cc1C; system = human, both sexes, plasma; setting = oral, 100 mg, day 1, multiple dose, geometric mean; endpoint = terminal elimination rate constant; result = 2.58e-05 s⁻¹
Compound = CC[C@@H](C)N([11CH3])C(=O)c1nc(-c2ccc(Cl)cc2)c2ccccc2n1; test = ultrafiltration; system = rhesus monkey, plasma; setting = TSPO preblock scan; endpoint = plasma free fraction; result = 0.055 ± 0.005
Compound = COc1ccnc(C[S+]([O-])c2nc3cc(-n4cccc4)ccc3[nH]2)c1C (stereo not shown); system = male Sprague Dawley rats, plasma; setting = oral, 5 mg/kg ilaprazole racemate; scale = reference: compound over R-ilaprazole; endpoint = Cmax ratio; result = 1.79
Compound = CC(C)[C@H](NC(=O)[C@@H]1CCCN1C(=O)[C@H](CCCNC(=N)N)NC(=O)[C@H](CS)NC(=O)[C@H](Cc1c[nH]c2ccccc12)NC(=O)[C@H](CCCNC(=N)N)NC(=O)[C@@H](Cc1ccccc1)NC(=O)[C@H](Cc1c[nH]cn1)NC(=O)[C@H](CCC(=O)O)NC(=O)[C@H](CS)NC(=O)[C@H](CS)NC(=O)[C@@H]1CC(=O)N[C@@H](CCCNC(=N)N)C(=O)NCC(=O)N[C@@H](CC(=O)O)C(=O)N[C@H](Cc2ccc(O)cc2)C(=O)N1)C(N)=O [technetium-99m labelled]; system = C57 mouse, female, B16/F1 melanoma; setting = intravenous, 0.037 MBq, 0.5 h; scale = reference: tumour over blood; endpoint = tumour to tissue ratio; result = 1.55
Compound = CC/C=C\C/C=C\C/C=C\C/C=C\C/C=C\CCCCOC(CC)C(=O)O (stereo not shown); test = [14C] label; system = male Wistar rat, kidney cortex; setting = oral, 100 mg/kg, 8 h; endpoint = radioactivity concentration; result = 38.5 µg equiv/g
Compound = N=C(N)NCCC[C@@H]1NC(=O)[C@H](Cc2c[nH]c3ccccc23)NC(=O)[C@@H](CC2CCCCC2)NC(=O)[C@@H]2CCCN2C(=O)[C@@H](NC(=O)CCc2ccccc2)CCCNC1=O; system = C57BL/6J mice, brain; setting = intraperitoneal, 1 mg/kg, two-compartment model; endpoint = distribution rate constant k12; result = 1.92 h⁻¹
Compound = C#CCOc1ccc(/C=C2\SC(=O)N(CC(=O)NCc3ccccc3)C2=O)cc1; test = inverse Kirkwood-Buff integrals; system = binary solvent mixture; setting = concentration not given, 298.15 K, mole fraction x1 0.70; endpoint = correlation volume; result = 4950 cm³/mol
Compound = Oc1ccc2ccccc2c1/N=N/c1ccc(/N=N/c2ccccc2)cc1; system = rat whole blood QC samples; setting = 5.0 µg/L, 4 h, room temperature, short-term stability; endpoint = measured concentration; result = 5.13 µg/L
Compound = C[C@H](Oc1cc(-c2cnn(C3CCN(CC[18F])CC3)c2)cnc1N)c1c(Cl)ccc(F)c1Cl; test = PET imaging; system = nude mouse, brain; setting = iv, 60 min post injection; endpoint = tracer uptake; result = 1.8 ± 0.6 %ID/cc
Compound = NCC(=O)N1CCC[C@H]1C(=O)N1C[C@H](O)C[C@H]1C(=O)O; test = potentiometric titration; system = water; setting = 37 °C, 0.15 mol/dm3 NaCl; endpoint = pKa2; result = 3.07
Compound = CCCC[C@@H]1NC(=O)[C@@H](NC(=O)[C@H](CCC(=O)O)NC(=O)CNC(=O)CN2CCN(CC(=O)O)CCN(CC(=O)O)CCN(CC(=O)O)CC2)CCCCNC(=O)C[C@@H](C(N)=O)NC(=O)[C@H](C(C)C)NC(=O)[C@@H]2CCCN2C(=O)[C@H](CCCNC(=N)N)NC(=O)CNC(=O)[C@H](Cc2c[nH]c3ccccc23)NC(=O)[C@H](CCCNC(=N)N)NC(=O)[C@@H](Cc2ccccc2)NC(=O)[C@H](Cc2c[nH]cn2)NC(=O)[C@H](CCC(=O)O)NC1=O [gallium-67 labelled]; system = C57 mice, B16/F1 flank melanoma; setting = intravenous, 2 h, with: blocking peptide 10 µg; scale = reference: tumour over kidney; endpoint = tissue ratio; result = 0.02
Compound = COc1ccc(/C=C/c2ccc(-c3ccc(C)cn3)nc2)cc1; test = TCSPC; system = acetonitrile; setting = zinc complex; endpoint = radiative decay rate constant; result = 0.15 ns⁻¹

A few entries again:
Compound = CCCC[C@@H]1NC(=O)[C@@H](NC(=O)[C@H](CCC(=O)O)NC(=O)CNC(=O)CN2CCN(CC(=O)O)CCN(CC(=O)O)CCN(CC(=O)O)CC2)CCCCNC(=O)C[C@@H](C(N)=O)NC(=O)[C@H](C(C)C)NC(=O)[C@@H]2CCCN2C(=O)[C@H](CCCNC(=N)N)NC(=O)CNC(=O)[C@H](Cc2c[nH]c3ccccc23)NC(=O)[C@H](CCCNC(=N)N)NC(=O)[C@@H](Cc2ccccc2)NC(=O)[C@H](Cc2c[nH]cn2)NC(=O)[C@H](CCC(=O)O)NC1=O [gallium-67 labelled]; system = C57 mice, B16/F1 flank melanoma; setting = intravenous, 2 h, with: blocking peptide 10 µg; scale = reference: tumour over kidney; endpoint = tissue ratio; result = 0.02
Compound = NCCCC(=O)OCC(=O)c1cc(F)c(O)c(F)c1.O=C(O)C(F)(F)F; test = photolysis, measured: disappearance of compound; system = aqueous HEPES buffer with LiClO4; setting = pH 8.2; endpoint = quantum yield; result = 0.02
Compound = Cn1c(=O)oc2ccc(-c3ccc(CC(C#N)NC(=O)C4CNCCCO4)c(F)c3)cc21 (stereo not shown); system = human; setting = oral, 20 mg once daily, TEAE, multiple ascending dose; endpoint = abdominal pain incidence; result = 0%
